Experimental data from different studies.
Each numbered part is a random draw from the data of one study; scales do not carry over between parts.

Set 1 — target: human cyclin A2; method: competitive growth deep sequencing; form: peptide; organism: Saccharomyces cerevisiae; strain: cyclin A2-Cln2 fusion strain; setting: peptide tiling library; direction: direction not given
With `LRRKLFLDGNGSIS` the enrichment score was -0.558.
For `GAEELEDLVHFSVSEL`, the enrichment score was 2.02.
`ARKRLELGNLGNPQ` gave an enrichment score of 2.3.
The enrichment score of `GFGFLLFICKLTF` is reported as 0.324.
The enrichment score of `RRVLCFDS` is reported as -0.0902.
`RKLDLEGIGR` has an enrichment score of 2.17.
`NNIRKALSFDNRGEEH` has an enrichment score of 0.557.
With `SCCKRKLVVGNGPEGP` the enrichment score was -0.0776.
For `DWDTVERQEEEAPSWD`, the enrichment score was 1.36.
`TTTTSPRTPPPLTVQD` gave an enrichment score of 0.658.
`PPKPLKKLRFDIEGSD` has an enrichment score of 0.17.
`PPTFLSTGEIHAFLSS` gave an enrichment score of -0.516.
The enrichment score of `KVKRRLDLDIDGLQKE` is reported as 1.94.
The enrichment score of `NFETPEAETPIRSPFK` is reported as 0.541.
With `RKLHFEDEVT` the enrichment score was 2.99.
`PQWPCGKHKRVLIFAS` gave an enrichment score of -0.361.
With `LRRQLSFSED` the enrichment score was 1.06.
The enrichment score of `VSRNLRSSLKSSLHTL` is reported as -0.911.

Set 2 — method: RNA Bind-n-Seq; form: RNA; medium: in vitro; concentration: 200 nM; setting: whole 134-nt RNA, ends assumed; with: 150 mM LiCl; relative to: input library; direction: higher = stronger binding; library: 7-deaza-guanosine replaces G
Target: Ras GTPase-activating protein-binding protein 1, full length (G3BP1, Homo sapiens, UniProt Q13283)
Chain of UniProt Q13283 (whole entry, looked up): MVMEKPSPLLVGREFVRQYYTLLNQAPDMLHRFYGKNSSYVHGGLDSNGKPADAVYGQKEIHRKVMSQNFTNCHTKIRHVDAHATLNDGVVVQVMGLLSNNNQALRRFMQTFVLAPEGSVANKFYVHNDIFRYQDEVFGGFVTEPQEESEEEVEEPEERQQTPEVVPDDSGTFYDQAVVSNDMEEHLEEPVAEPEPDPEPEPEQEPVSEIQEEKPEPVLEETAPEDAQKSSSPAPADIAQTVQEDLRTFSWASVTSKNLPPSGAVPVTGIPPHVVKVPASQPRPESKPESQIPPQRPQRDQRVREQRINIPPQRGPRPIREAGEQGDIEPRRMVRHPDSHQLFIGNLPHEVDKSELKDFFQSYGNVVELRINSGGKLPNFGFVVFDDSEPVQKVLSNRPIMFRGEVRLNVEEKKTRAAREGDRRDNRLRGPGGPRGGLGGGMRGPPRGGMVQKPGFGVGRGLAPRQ
For `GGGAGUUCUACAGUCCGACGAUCUUGAGAAAAGCACCCAUAAUUUGCUACUUGAGGAUUUUAUUCCCUGGAUUCUCUGGAUGCUCAUUGCAUGAAAAGUGGAAAAGUUUAGAUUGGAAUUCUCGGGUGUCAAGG`, the log2 enrichment was -1.29.
`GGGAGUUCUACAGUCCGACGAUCUGGCCCUGGUGGCAUGCGGGGAGGAAGAGGUGGCCUCAUGGAUCGCGGUGGUCCCGGUGGAAUGUUCAGAGGUGGCCGUGGUGGAGACAGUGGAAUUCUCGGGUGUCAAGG` gave a log2 enrichment of 0.269.
The log2 enrichment of `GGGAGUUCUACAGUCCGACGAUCGUCCUGUGCUACACAUCGUAUGUACCGAAUCGGGGUGGGGUUUUUUUGGGGUUUGGGGAAAGUAUUAUGUUACGCCGUUCGGAUCUGCACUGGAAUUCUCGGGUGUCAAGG` is reported as 0.495.
For `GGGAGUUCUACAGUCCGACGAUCUCCCUGAAUCACCGACUGGAGGAGAGUUACCUACAAGAGCCUUCAUCCAGGAGCAUCCACACUGCAAUGAUAUAGGAAUGAGGUCUGAACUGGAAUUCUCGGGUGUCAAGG`, the log2 enrichment was -0.717.
The log2 enrichment of `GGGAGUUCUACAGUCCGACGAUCUUAAAGUAGAGGAACAAAAAGAAGAACAGAAGGAGUUAGAGAAAUCUGAAAAAGAAGAGGAUGAGGAUGAUGAUAGGAAAUCUGAAGACGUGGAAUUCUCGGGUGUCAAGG` is reported as -0.77.
`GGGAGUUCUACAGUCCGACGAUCCCCAUUCCAAGAUUUGCUGUUGGCAUUGUAAUAGGAAGAAAUGGAGAGAUGAUCAAAAAAAUACAAAAUGAUGCUGGUGUUCGCAUUCAGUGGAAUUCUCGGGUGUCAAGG` gave a log2 enrichment of -0.985.
With `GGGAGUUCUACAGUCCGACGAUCACCAUGCAGGUGGGCAUCUUUGGGAAGUGGGGCAAGGGGGGGAUAGGGAGGGGGGUAACACUUUGGGAACAGGUGGUCCAAGGUCGUUUCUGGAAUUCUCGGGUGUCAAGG` the log2 enrichment was 0.451.
With `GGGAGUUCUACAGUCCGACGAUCCAAGUCCUGUGCUACACAUCGUAUGUACCGAAUCGGCCCGGGGCCCGGGGCCCGGGAAAGUAUUAUGUUACGCCGUUCGGAUCUGCACUUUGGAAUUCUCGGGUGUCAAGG` the log2 enrichment was -0.439.
With `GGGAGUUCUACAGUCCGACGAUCUAACUUUAGAGGAGGAUCUGAUGGAUAUGGCAGUGGACGUGGAUUUGGGGAUGGCUAUAAUGGGUAUAGAGGAGGACCUGGAGGUGGCAAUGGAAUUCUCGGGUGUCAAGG` the log2 enrichment was 0.0344.
For `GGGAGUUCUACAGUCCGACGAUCGUCCUGUGCUACACAUCGUAUGUACCGAAUCGGGUUUUUGGGUUUUUGGGUUUUUGGGGAAAGUAUUAUGUUACGCCGUUCGGAUCUGCAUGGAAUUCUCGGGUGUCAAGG`, the log2 enrichment was -0.466.
With `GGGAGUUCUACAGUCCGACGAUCUGCUGGUGAGCUGCUGCCUGGCAGGCCACGUCUGCGUGUGGGACGCGCAGACCGGGGAUUGCCUAACGCGCAUUCCGCGCCCAGGGUAGGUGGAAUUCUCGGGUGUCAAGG` the log2 enrichment was -0.918.

Set 3 — method: universal PBM; form: double-stranded DNA, one strand shown; medium: in vitro; concentration: not given; direction: higher = stronger binding
Target: Sal-like protein 4, full length isoform B (SALL4, Homo sapiens, UniProt Q9UJQ4-2, residues 1-616)
Setting: 8-mer, flanks averaged, mean of replicates
The E-score of `CCCGCCCG` is reported as -0.306.
`GAACTTGC` gave an E-score of -0.159.
For `CCCGTTCC`, the E-score was -0.216.
For `AGAATGAA`, the E-score was 0.214.
`ACCTACGA` has an E-score of 0.0282.
The E-score of `CCTGGGCG` is reported as -0.313.
`ACCGTAAA` gave an E-score of 0.18.
With `CTACATTC` the E-score was 0.123.
With `GAACTCGC` the E-score was -0.154.
`AAAATGCG` gave an E-score of 0.0866.
With `CTGTGCAA` the E-score was 0.0111.
The E-score of `ATACCGTG` is reported as -0.11.
With `AGGTATAA` the E-score was 0.25.
For `AAGGCTGG`, the E-score was -0.215.
For `GGTGTACA`, the E-score was 0.129.
`CGTCGAAA` gave an E-score of -0.0403.
With `CCTTGGCA` the E-score was -0.141.
The E-score of `CCACAAGA` is reported as -0.0572.

Set 4 — method: RNA Bind-n-Seq; form: RNA; medium: in vitro; concentration: 365 nM; relative to: no-protein control; direction: higher = stronger binding
Target: RNA binding protein fox-1 homolog 2, RRM domain, GST-SBP tag (RBFOX2, Homo sapiens, UniProt O43251-10, residues 100-194)
Setting: natural RNA segment, single round, ends assumed
Construct (chain): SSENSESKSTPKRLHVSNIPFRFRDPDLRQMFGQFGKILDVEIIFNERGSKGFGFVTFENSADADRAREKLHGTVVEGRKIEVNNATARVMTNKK
Under “RBNS enrichment (R)”, `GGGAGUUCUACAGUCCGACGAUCUCUUUCCUCCCUAAUUCCAAAAACCACAAAGGUUUCCCUGAGUGCAGAGAGAUCAGCCCACCCUGCAGACCCACAGAGAAGAUUCAGAGUGUGUGUGAGAGUGAGUGAGUUGGAAUUCUCGGGUGCCAA` is recorded as 0.236.
`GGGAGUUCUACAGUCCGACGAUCCUGCUCUUGCUUUUCAGAGAGCCAUCAUGGUCAUGUCAUGCUGAGGUCACAUGUAUAAAAUUAGCUUUUGUGUAUGUAUACCGUUUAAAGGAUUCCCCCACCCCCACUCCUGGAAUUCUCGGGUGCCAA` — result for “RBNS enrichment (R)”: 0.315.
For `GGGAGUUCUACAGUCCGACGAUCCACGGUGGGGACAGGGCAGAUUUAUGAGAAAUAUCAAUUGCCCCUCUCUUCUGGACCAAUUCCUUAACCUUGGGAAAGCUCAGGGCCUAGUAUCAGGGUGGGUGAUAGAAUGGAAUUCUCGGGUGCCAA`, “RBNS enrichment (R)” read 0.486.
`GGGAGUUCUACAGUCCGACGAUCACCCCCUUCCUGGGCAUCCGUUCGGGUUUUCUAACCGUUGUCUUGUUCUGGGGUGAGCGGGGAGCGCAUGCAGAGAUCCCAAGGCCUAUGUCUGGAGGGUACCAACUCCUUGGAAUUCUCGGGUGCCAA`: “RBNS enrichment (R)” 1.9.
For `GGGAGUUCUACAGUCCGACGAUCUGCAGAUGCUGUGAGAGUCUGGGGAAAGAUCACAUGGGUCGAGGGUUUCUCUACUGGUCAGGAUGCUUUUCUCAUAAGGGUCGACUUUUUUCACCAGUCACAUAAACACUUGGAAUUCUCGGGUGCCAA`, “RBNS enrichment (R)” read 0.323.
For `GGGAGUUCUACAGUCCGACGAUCUUUGUACAUUUUUGUAUGUUAAUUUAUGAAUGAUUUUUUCAGUAAAAAAUACAUAUUCAAGAACCAACCUUGGUGGUCAUUUCUCUUUGUGUAGGACAGUUUGGGUCCUUUGGAAUUCUCGGGUGCCAA`, “RBNS enrichment (R)” read 0.534.
Under “RBNS enrichment (R)”, `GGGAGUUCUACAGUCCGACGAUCGCAAAAUGGAGACCAAAUUCUAUCCUGUGAGGCUUUUAAUUGCACCAUAGUAUGCUCUGAGUAGCUUUACACUGCCUGGUACUGAUAGUAGUGGCUCGAUUUUUAAGAGCUGGAAUUCUCGGGUGCCAA` is recorded as 0.571.
For `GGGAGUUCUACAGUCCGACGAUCUCUUUCAACUUACUUUUCACAGUAGGUUUCAGGGGAACAAAGCCAUGCCUGCUGCCUGCCUCUCUCCUAACAUGGUUCCAUCAAGUAGACACCCUUUGUAUUUGACCUCUUGGAAUUCUCGGGUGCCAA`, “RBNS enrichment (R)” read 3.65.
`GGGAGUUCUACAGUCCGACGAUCCCCGUGAAUUAUAUGGCCUGACAAUAUGAAUUAGGUGUACUGUACUGAAGAACAGUACUCCACAAACAUGGGUGGUAACAAGAGUUCCAUCCCAGGAGGCCAAACGGUGCUGGAAUUCUCGGGUGCCAA` — result for “RBNS enrichment (R)”: 0.417.
For `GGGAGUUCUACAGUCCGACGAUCCAAUUUGGAAUCAGAAAGCUGGAUUCUGGUAAAUGGUCUUGUGCCCUUUAUCCUACUCAUCCCCGAUCUGGUCCCCUGUUCUCCAUAGUCCUUCACCCCCAAGCACCACUUGGAAUUCUCGGGUGCCAA`, “RBNS enrichment (R)” read 0.244.
For `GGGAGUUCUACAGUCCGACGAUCGAAAGAUUCUAGAUAAGUCAGCAUUGUUUAAAUCCAAGUGCAGUGCAAGUCUGUGAACUGAUCUGUUGCACUGUCUUAUGGCUUCUUAUUCUUCAUCAUAGCUAAUUAAAUGGAAUUCUCGGGUGCCAA`, “RBNS enrichment (R)” read 0.868.
`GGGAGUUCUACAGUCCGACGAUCAGCCCAUAGGUCUCAGAGAGUUAAUAGGAGUAUUUUUGGGCUAUUGCAUAAGGAGCCACUGCUGCCACCACUUUUGGAUUUUAUGGGAGGCUCCUUCAUCGAAUGCUAAAUGGAAUUCUCGGGUGCCAA` — result for “RBNS enrichment (R)”: 1.18.

Repeated from above (set 2):
With `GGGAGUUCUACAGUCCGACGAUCUGCUGGUGAGCUGCUGCCUGGCAGGCCACGUCUGCGUGUGGGACGCGCAGACCGGGGAUUGCCUAACGCGCAUUCCGCGCCCAGGGUAGGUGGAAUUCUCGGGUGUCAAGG` the log2 enrichment was -0.918.
With `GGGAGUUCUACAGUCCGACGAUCUAACUUUAGAGGAGGAUCUGAUGGAUAUGGCAGUGGACGUGGAUUUGGGGAUGGCUAUAAUGGGUAUAGAGGAGGACCUGGAGGUGGCAAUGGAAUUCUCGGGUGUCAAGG` the log2 enrichment was 0.0344.
For `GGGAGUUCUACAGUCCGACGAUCUUGAGAAAAGCACCCAUAAUUUGCUACUUGAGGAUUUUAUUCCCUGGAUUCUCUGGAUGCUCAUUGCAUGAAAAGUGGAAAAGUUUAGAUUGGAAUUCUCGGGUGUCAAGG`, the log2 enrichment was -1.29.
The log2 enrichment of `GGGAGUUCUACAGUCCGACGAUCUUAAAGUAGAGGAACAAAAAGAAGAACAGAAGGAGUUAGAGAAAUCUGAAAAAGAAGAGGAUGAGGAUGAUGAUAGGAAAUCUGAAGACGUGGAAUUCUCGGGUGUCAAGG` is reported as -0.77.
`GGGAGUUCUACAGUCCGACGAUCUGGCCCUGGUGGCAUGCGGGGAGGAAGAGGUGGCCUCAUGGAUCGCGGUGGUCCCGGUGGAAUGUUCAGAGGUGGCCGUGGUGGAGACAGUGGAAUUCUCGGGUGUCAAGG` gave a log2 enrichment of 0.269.
For `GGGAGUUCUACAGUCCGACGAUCGUCCUGUGCUACACAUCGUAUGUACCGAAUCGGGUUUUUGGGUUUUUGGGUUUUUGGGGAAAGUAUUAUGUUACGCCGUUCGGAUCUGCAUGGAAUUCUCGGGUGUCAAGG`, the log2 enrichment was -0.466.
With `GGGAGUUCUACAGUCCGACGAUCCAAGUCCUGUGCUACACAUCGUAUGUACCGAAUCGGCCCGGGGCCCGGGGCCCGGGAAAGUAUUAUGUUACGCCGUUCGGAUCUGCACUUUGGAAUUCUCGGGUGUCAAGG` the log2 enrichment was -0.439.
With `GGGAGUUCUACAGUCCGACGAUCACCAUGCAGGUGGGCAUCUUUGGGAAGUGGGGCAAGGGGGGGAUAGGGAGGGGGGUAACACUUUGGGAACAGGUGGUCCAAGGUCGUUUCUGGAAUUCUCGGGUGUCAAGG` the log2 enrichment was 0.451.
`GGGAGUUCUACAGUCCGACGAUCCCCAUUCCAAGAUUUGCUGUUGGCAUUGUAAUAGGAAGAAAUGGAGAGAUGAUCAAAAAAAUACAAAAUGAUGCUGGUGUUCGCAUUCAGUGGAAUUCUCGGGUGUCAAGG` gave a log2 enrichment of -0.985.
